# Assay results gathered from unrelated publications.
# Lines come from different studies, so protocols differ. “And” joins repeats or separate records; there may be more than shown. ± gives the spread as reported.
# UCHL1: Ubiquitin carboxyl-terminal hydrolase isozyme L1 (UCHL1, Homo sapiens, UniProt P09936)
# Sequence of UniProt P09936 (whole entry, looked up): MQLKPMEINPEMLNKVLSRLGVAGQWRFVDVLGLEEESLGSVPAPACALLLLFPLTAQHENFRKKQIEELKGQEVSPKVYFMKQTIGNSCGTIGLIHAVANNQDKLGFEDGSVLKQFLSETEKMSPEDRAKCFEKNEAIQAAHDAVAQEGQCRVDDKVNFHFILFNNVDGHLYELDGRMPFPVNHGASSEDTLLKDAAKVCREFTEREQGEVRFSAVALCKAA
Compound,target or system,test,test system,conditions,how to read,endpoint,value
Cc1ccc([C@@H]2O[C@H](CO)[C@@H](O)[C@H](O)[C@H]2O)cc1Cc1ccc(-c2ccc(F)cc2)s1,,,Japanese type 2 diabetes patients,"400 mg, day 15, 24 h urine collection",baseline: baseline,urinary sodium excretion change,22.6 mEq
CCCCc1oc2ccccc2c1C(=O)c1cc(I)c(OCCN(CC)CC)c(I)c1,,,"male Hartley guinea pigs, anaesthetized","intravenous, 20 mg/kg over 10 min, after infusion",,mean blood pressure,35 ± 0.5 mmHg
O=C(O)C(F)(F)F,,19F NMR chemical shift titration,,,lower pKa than literature,pKa shift vs literature,0.5 to 1 pKa units
CNCc1ccc(-c2[nH]c3cc(F)cc4c3c2CCNC4=O)cc1,,,patients,"oral, 840 mg twice daily, all grades",,constipation incidence,0%
Cc1c(-c2ccc(N3CCc4cccc(C(=O)Nc5nc6ccccc6s5)c4C3)nc2C(=O)O)cnn1CC12CC3(C)CC(C)(C1)CC(OCCNCC[C@H](O)CO)(C3)C2,,,anaesthetized male beagle dog,"iv infusion, 0.3 mg/kg/min, 15 min",,plasma concentration,133 ng/mL and 57.3 ng/mL
CNC(=O)c1ccc(-c2cnc3ncc(Cc4ccc5ncccc5c4)n3n2)cc1F,,"CTCAE v4.0, any causality",human cancer patients,"oral, dose not given, dose escalation",,upper abdominal pain incidence (all grades),13%
Cn1c(C(F)(F)F)cc(=O)n(-c2cc(Oc3cccnc3OCC(=O)O)c(Cl)cc2F)c1=O,,,"beagle dog, female, plasma","oral capsule, 1000 mg/kg/day epyrifenacil, day 1, 90-day study",,Cmax,13100 ng/mL
N=C(N)NCCNC(=O)C1(Nc2ccccc2)CCN(Cc2ccccc2)CC1,,,"Sprague-Dawley rats (both sexes), plasma","intravenous, 2.5 mg/kg",,C0,13200 ± 4180 ng/mL
O=C(Nc1nc2cccc(-c3ccc(CN4CCS(=O)(=O)CC4)cc3)n2n1)C1CC1,,item: hypercholesterolaemia,human rheumatoid arthritis patients,"oral, 150 mg once daily, 4 weeks, regardless of relatedness",,treatment-emergent adverse events,0%
C[C@@H]1COCCN1c1cc(C2([S@](C)(=N)=O)CC2)nc(-c2cc[nH]c3nccc2-3)n1,,,Japanese advanced solid tumour patients,"oral, 160 mg twice daily, CTCAE grade ≥3",,Constipation incidence,0%
CN(C)C(=O)c1ncccc1O,,,,,,pKa (acidic),7.4
Cn1cc(-c2cn3nccc3c(-c3cnn([C@]4(CC#N)C[C@@H](C#N)C4)c3)n2)cn1,,,"healthy humans fasted, plasma","10 mg single dose, geometric mean",,mean residence time,7.8 h
CC(C)=CCC/C(C)=C/CC/C(C)=C/CC[C@@](C)(O)CCC1=C(C)C(=O)C(C)=C(C)C1=O,,,"human, plasma","oral, dose not given, added: itraconazole",baseline: with over without itraconazole,AUC0-inf ratio,289%
Cc1cc(Nc2cc3ncccc3c(N[C@@H]3C[C@H]4CC[C@@H](C3)N4CCC#N)n2)n[nH]1,,,healthy human subjects,"oral, 300 mg, 14 days, multiple ascending dose",,pruritus incidence,17%
Cc1cc(-c2nccc3c2ccn3CC(=O)Nc2ccc(-c3cnccn3)cn2)ccn1,,,human,"5 mg once daily, multiple ascending dose",,subjects with infections,12.5%
COc1cc(C(=O)NC2CCN(C)CC2)c(F)cc1Nc1ncc(C(F)(F)F)c(Oc2cccc3c2C(=O)N(C)C3)n1,,,"human patients, plasma","oral, 300 mg single dose, geometric mean",,dose-normalised Cmax,15.1 nmol/L per mg
C=CC(=O)N1CCC(c2nc(C(=O)O)co2)CC1,UCHL1,"covalent, intact protein LC-MS",,12.5 µM,,labelling,45%
CNc1ccc(-c2nc3ccc(O)cc3s2)cc1 [carbon-11 labelled],,ex vivo biodistribution,"APP/PS1 mouse, AD model, lungs","intravenous, 30 min",,SUV,0.398 ± 0.22
COc1cc2c3c(n(CCCN4CCOCC4)c(=O)c2cc1OC)-c1cc2c(cc1C3=O)OCO2,,,"beagle dog, female, plasma","intravenous infusion, 215 mg/m^2, 1 h infusion",,CL,20.2 L/h/m² and 20.8 L/h/m²
Cc1ccc(C=C(C#N)C(=O)Nc2cccc3ccccc23)cc1,UCHL1,"covalent, intact protein LC-MS",,12.5 µM,,labelling,14.8%
Cc1ccc(C(=O)N(CCCN)C(c2nc3snc(C)c3c(=O)n2Cc2ccccc2)C(C)C)cc1 (stereo not shown),,,human patients,"intravenous, 16 mg/day",,patients with CTCAE grade ≥3 events,71%
NC(=O)N1c2ccccc2C=Cc2ccccc21,,,"human, serum",concentration not given,,ALT,≤ 112 U/L
C[C@@H](Nc1cc(F)cc(F)c1)c1cc(C(=O)N(C)C)cc2c(=O)cc(N3CCOCC3)oc12,,item: M1 metabolite,human,"oral, 120 mg, single dose day 1, 2:5 BID regimen",,AUC(0-12 h),2600 ng·h/mL
COc1ccc([C@@H](O)c2cc(-c3ncnc4cc(N5CCOCC5)ccc34)c(F)cc2Cl)nn1,,,locally advanced rectal cancer patients,"150 mg, added: capecitabine and radiotherapy",,constipation TEAE incidence,50%
N#Cc1ccc2c(c1)[C@H]1CCCN(C(=O)c3ccc4[nH]cnc4c3)[C@H]1C2,,,"human, male","80 mg, day 15",,androstenedione level,9.5 nmol/L
Cc1c(Br)cc(NC(=O)C(c2ccccc2)S(=O)(=O)O)cc1Br (stereo not shown),,,"CD-1 mice, whole blood","intravenous, 2 mg/kg",,unbound C0,< 30 nM
C#Cc1cccc(Nc2ncnc3cc(OCCOC)c(OCCOC)cc23)c1,,UPLC-MS/MS,"Wistar rat, male, plasma","oral, four weeks, added: PPA 1000 mg/kg, high dose",baseline: control,CL/F decrease,75%
COc1ccnc(C(=O)NC(CO)C(=O)O)c1O (racemic),,,water/sediment,"20 °C, whole system, geometric mean, aerobic dark",,DT50,49 days
COC(=O)CNC(=O)c1nc(Cl)c2ccccc2c1O,,,,,,pKa (basic),< 2
CC(C)(C(=O)N1CCOc2c(C#N)cncc2C1)C(F)F,,item: ventricular extrasystoles,"healthy humans, both sexes","oral, 20 mg single dose",,subjects with TEAE,0%
C=CC(=O)Nc1cc(Nc2nccc(-c3cn(C)c4ccccc34)n2)c(OC)cc1N(C)CCN(C)C,,,human patients,"oral, cycle 3 day 1, safety run-in, mean, added: pemetrexed + carboplatin",,CLss/F,17.1 L/h
CC1(C(=O)O)CCC(C(=O)Nc2ccc(Nc3ccccc3)cc2)C1(C)C (stereo not shown),,,sheep erythrocytes,"1 h, pH 7.5",,maximum haemolysis,2.2%
CC1(C)S[C@@H]2[C@H](NC(=O)[C@H](N)c3ccc(O)cc3)C(=O)N2[C@H]1C(=O)O,,,"male Hartley guinea pigs, anaesthetized","intravenous, 20 mg/kg over 10 min, after infusion",,mean blood pressure,36 ± 0.1 mmHg
C[C@H]1Oc2cc(cnc2N)-c2c(nn(C)c2C#N)CN(C)C(=O)c2ccc(F)cc21,,,"human patients, plasma","oral, cycle 2 day 1, geometric mean, added: avelumab",,Tlast,17 h
CCC(CC)C(=O)Oc1cccc(C(O)CCN)c1.O=CO (stereo not shown),,scotopic ERG,BALB/cJ mice,"intraperitoneal, 10 mg/kg, 4 h dark adaptation, added: 10,000 lx photobleach, 10 min",,ERG a-wave amplitude,41 µV and 75 µV and 70 µV and 24 µV and 25 µV and 29 µV
CN(C(=O)n1cnc(-c2cccnc2)c1)[C@H]1CC[C@H](O)CC1,,,"rat, cerebellum","oral, 10 mg/kg single dose, 24 h",,tissue concentration,13.3 ± 0.8 ng/g
C[C@@H](N)C1CCN(S(=O)(=O)c2cccc3cnccc23)CC1,,,healthy volunteers,"75 mg, fasted",,participants with limb abscess,0%
N#Cc1ccc(-c2cnc3ccc(-c4ccc(C(=O)N5CCOCC5)cc4)cn23)cc1,,item: QRS interval,healthy volunteers,"oral, 10 mg, fed, time-averaged",,placebo-corrected change from baseline,-1.2 ms
O=C(O)CCCOc1ccc([18F])cc1-c1cc(-c2ccccc2C(F)(F)F)n(-c2ccccc2)n1,,gamma counting,"male ddY mice, bone","intravenous, 2.1 MBq, 30 min",,radioactivity uptake,0.98 ± 0.17 SUV
Cl.[2H]C([2H])([2H])CC(=O)c1cnc(NC(=O)C2CC2)cc1Nc1cccc(-c2ncn(C([2H])([2H])[2H])n2)c1OC,,median,human,"oral, 17.5 mg single dose, fasted, liquid",,Tmax,1.13 h
COc1ccc(C[C@@H](C)[C@@H](C)Cc2ccc(OC)c(OC)c2)cc1OC,,,"beagle dog male, plasma","oral, 1000 mg/kg/day, day 28",,Cmax,1660 ± 391 ng/mL
CNC[C@H](O)[C@@H](O)[C@H](O)[C@H](O)CO.O=C([O-])CN1CCN(CC(=O)[O-])CCN(CC(=O)O)CCN(CC(=O)[O-])CC1.[Gd+3],,,fetal bovine serum,"20 °C, 1.0 T, non-self-assembled",,relaxivity r1,5 ± 0.07 mM⁻¹ s⁻¹
O=C1NCCc2nc(OCc3cccc(F)c3)ccc21,,item: Catalepsy,Sprague-Dawley rat male,"oral, 100 mg/kg, 4 h",direction not given,Irwin test score,0
O=C(O)c1cccc(C(=O)O)c1,,,betaine/ethylene glycol DES-water,DES mass fraction 0.20,,apparent dissolution enthalpy,2.79 kcal/mol
COc1cc(C(=O)N2CCC3(CC2)CC(=O)c2c(cnn2C(C)C)C3)cc(-c2ccc(C(=O)O)cc2)n1,,item: HDL cholesterol,"human, fasting serum","10 mg every 12 h, day 13, adjusted geometric mean",baseline: baseline and placebo,placebo-adjusted change from baseline,-5.8%
CCN1/C(=C/C(C)=O)Sc2ccc(F)cc21,,,cynomolgus monkey,"oral, 100 mg/kg, 1 h post-dose",,QRS duration,36 ± 2 ms

# Excerpt of the above:
Compound,target or system,test,test system,conditions,how to read,endpoint,value
Cc1cc(Nc2cc3ncccc3c(N[C@@H]3C[C@H]4CC[C@@H](C3)N4CCC#N)n2)n[nH]1,,,healthy human subjects,"oral, 300 mg, 14 days, multiple ascending dose",,pruritus incidence,17%
Cc1cc(-c2nccc3c2ccn3CC(=O)Nc2ccc(-c3cnccn3)cn2)ccn1,,,human,"5 mg once daily, multiple ascending dose",,subjects with infections,12.5%
COc1cc(C(=O)NC2CCN(C)CC2)c(F)cc1Nc1ncc(C(F)(F)F)c(Oc2cccc3c2C(=O)N(C)C3)n1,,,"human patients, plasma","oral, 300 mg single dose, geometric mean",,dose-normalised Cmax,15.1 nmol/L per mg
C=CC(=O)N1CCC(c2nc(C(=O)O)co2)CC1,UCHL1,"covalent, intact protein LC-MS",,12.5 µM,,labelling,45%
CNc1ccc(-c2nc3ccc(O)cc3s2)cc1 [carbon-11 labelled],,ex vivo biodistribution,"APP/PS1 mouse, AD model, lungs","intravenous, 30 min",,SUV,0.398 ± 0.22
COc1cc2c3c(n(CCCN4CCOCC4)c(=O)c2cc1OC)-c1cc2c(cc1C3=O)OCO2,,,"beagle dog, female, plasma","intravenous infusion, 215 mg/m^2, 1 h infusion",,CL,20.2 L/h/m² and 20.8 L/h/m²
